Experimental data pooled from the literature.
Values joined by “and” are separate records of one study, mostly repeats; a detail may differ. ± marks the error that the study gave.
GUK1: GUK1 (Homo sapiens, UniProt Q16774)
Histone acetyltransferase type B catalytic subunit: Histone acetyltransferase type B catalytic subunit (Homo sapiens, UniProt O14929)
RFWD3: RFWD3 (Homo sapiens, UniProt Q6PCD5)
Protein kinase C-like 1: Protein kinase C-like 1 (Candida albicans, UniProt P43057)

| SMILES | target | assay | system | setting | scale | measurement | value |
| --- | --- | --- | --- | --- | --- | --- | --- |
| O=C(O)c1ccc(Nc2ncc3c(n2)-c2ccc(Cl)cc2C(c2c(F)cccc2F)=NC3)cc1 | AMPK(r) | kinase activity |  | 1 µM |  | remaining activity | 83% |
| CCCC[C@H](NC(=O)[C@@H](NC(=O)[C@H](CCCNC(=N)N)NC(=O)CN)[C@@H](C)O)C(=O)N[C@@H](CCC(N)=O)C(=O)N[C@H](C(=O)N[C@@H](C)C(=O)N[C@@H](CCCNC(=N)N)C(=O)N[C@@H](CCCCN)C(=O)N[C@@H](CO)C(=O)N[C@H](C(=O)NCC(=O)NCC(N)=O)[C@@H](C)O)[C@@H](C)O | Histone-lysine N-methyltransferase SETD7 (SETD7, Homo sapiens, UniProt Q8WTS6) | histone H3 methylation, inhibitor, western blot |  | 100 µM, 30 min, enzyme 500 nM, with: full-length H3, SAM 30 µM | baseline: no inhibitor | H3K4me1 level | 35 ± 7% |
| Nc1nc2c(ncn2[C@@H]2O[C@@H]3COP(=O)(O)O[C@H]3[C@H]2O)c(=O)[nH]1 | Cone cGMP-gated channel (Morone saxatilis, UniProt Q3I0N1+Q3I0N2) | channel current, agonist, suction electrode | cone outer segments | single cone shown, with: 2 µM Ca2+ |  | Hill coefficient | 1.98 |
| CC[C@H](C)[C@H](NC(=O)[C@H](CC(=O)O)NC(=O)[C@H](CCC(=O)O)NC(=O)[C@@H](N)CC(N)=O)C(=O)N[C@@H](CC(=O)O)C(=O)N[C@@H](CCC(N)=O)C(=O)N[C@@H](CCSC)C(=O)N[C@@H](Cc1ccccc1)C(=O)N[C@@H](CO)C(=O)N[C@H](C(=O)N[C@@H](CC(C)C)C(=O)N[C@@H](CC(C)C)C(=O)NCC(=O)N[C@@H](CCC(=O)O)C(=O)N[C@@]1(C)CCCC=CCCC[C@@](C)(C(=O)N[C@@H](CCC(N)=O)C(=O)N[C@@H](CO)C(=O)O)NC(=O)[C@H](CC(C)C)NC(=O)[C@H](CC(C)C)NC(=O)[C@H](CC(=O)O)NC1=O)[C@@H](C)O | Talin-1, with integrin beta3 (Tln1, Mus musculus, UniProt P26039) | inhibitor, fluorescence polarization |  |  |  | β3-talin head domain interaction | inhibited |
| CC[C@@H](C)[C@@H](NC(=O)[C@@H](Cc1ccc(O)cc1)NC(=O)[C@H]1CCCN1C(=O)[C@@H](CCCNC(=N)N)NC(=O)[C@H](N)Cc1c[nH]cn1)C(=O)N[C@H](C)C(=O)N[C@H](Cc1c[nH]cn1)C(=O)N[C@H](CCCNC(=N)N)C(=O)N[C@@H](C(=O)N[C@H](Cc1ccc(O)cc1)C(=O)N[C@H](CO)C(=O)N[C@H](Cc1ccccc1)C(N)=O)C(C)C | Transferrin receptor protein 1 (Tfrc, Mus musculus, UniProt Q62351) | flow cytometry | DC2.4 | 24 h, pH 7.4, unit not given | baseline: 0 h | surface expression | 0.54 and 0.633 |
| Nc1ncnc2c1ncn2[C@@H]1O[C@H](CO[P@](=O)(O)O[P@](=O)(O)O[P@@](=O)(O)S)[C@@H](O)[C@H]1O | GUK1 | ITC |  | molar ratio 2.388 |  | ΔH | -0.364 kcal/mol |
| CC(=O)N[C@H](C(=O)N1C[C@H](O)C[C@H]1C(=O)NCc1ccc(-c2scnc2C)cc1)C(C)(C)SCCCCCCNC(=O)C[C@@H]1N=C(c2ccc(Cl)cc2)c2c(sc(C)c2C)-n2c(C)nnc21 | BRD4/VHL, BD2; with elongins B/C (Homo sapiens, UniProt O60885+P40337) | ITC |  | 25 °C, ternary complex, with: BRD4 BD2 |  | ΔH | -6.9 ± 0.6 kcal/mol |
| C=CC(=O)N1CCC(COCC(=O)N2CCN(c3nc(-c4cnc(N)nc4C(F)F)nc(N4CCOC[C@@H]4C)n3)CC2)CC1 | Dual specificity protein kinase CLK4 (CLK4, Homo sapiens, UniProt Q9HAZ1) | KINOMEscan |  | 1 µM |  | remaining binding | 100% |
| CCS(=O)(=O)N1CC(CC#N)(n2cc(-c3ncnc4[nH]ccc34)cn2)C1 | Alpha-1-acid glycoprotein 1 (ORM1, Homo sapiens, UniProt P02763) |  |  | with: Cu^2+ |  | change in binding constant | -37.8% |
| NC/C(=C\F)COc1cccc(Cn2c(=S)[nH]c(=O)c3[nH]cnc32)c1 | Amine oxidase [copper-containing] 3 (AOC3, Homo sapiens, UniProt Q16853) | substrate turnover, SSAO/VAP-1 oxidation |  | concentration not given, unit not given | baseline: DMSO control | enzyme activity | 0.96 and 0.91 and 0.92 and 0.9 and 0.97 |
| CCCCC[S+]([O-])c1n[nH]c(N)n1 (stereo not shown) | Histone acetyltransferase type B catalytic subunit | binding, affinity selection mass spectrometry |  |  | baseline: other proteins in batch | log fold enrichment | -0.0585 |
| N[C@@H](CCC(=O)O)C(=O)O | uncharacterized protein (Ixodes scapularis, UniProt A0A0N9E2I2) | agonist, two-electrode voltage clamp | Xenopus oocytes | 100 µM |  | current amplitude | 50 to 400 nA |
| O=c1nc(SCc2ccc(C(F)(F)F)cc2)nc(SCc2csc3ccc(Cl)cc23)[nH]1 | DNA topoisomerase 2-alpha (TOP2A, Homo sapiens, UniProt P11388) | DNA relaxation |  | 15.6 µM, replicate 2 |  | relaxed DNA | 0.5% |
| O=C(CN1CCO[C@H](COc2cccnc2)C1)N1CCc2ccccc21 | 5-hydroxytryptamine receptor 2C (HTR2C, Homo sapiens, UniProt P28335) | radioligand binding |  | concentration not given, with: [3H]mesulergine |  | inhibition | 36.4% |
| Cc1cccc(N2CC(C(=O)O)CC2=O)c1 (stereo not shown) | RFWD3 | binding, affinity selection mass spectrometry |  |  | baseline: other proteins in batch | log fold enrichment | -0.0706 |
| c1ccc(-c2n[nH]cc2-c2ccnc3ccccc23)nc1 | Protein kinase C-like 1 | kinase binding, competitor, MIB/MS competition, measured: PKC1 | Candida albicans cell lysate | 100 nM | baseline: DMSO | log2 fold change | 1.35 |
| O=c1nc(SCc2cc(F)cc(C(F)(F)F)c2)nc(SCc2csc3ccc(Cl)cc23)[nH]1 | DNA topoisomerase 2-beta (TOP2B, Homo sapiens, UniProt Q02880) | decatenation |  | 1.95 µM, replicate 2 |  | decatenated DNA | 100% |
| Cc1ccccc1C1CC(=O)c2c(C)nc(N)nc2C1 (stereo not shown) | RFWD3 | binding, affinity selection mass spectrometry |  |  | baseline: other proteins in batch | log fold enrichment | -0.0483 |
| O=C(COP(=O)(O)O)[C@@H](O)[C@H](O)[C@H](O)COP(=O)(O)O | Prohibitin 1 (PHB1, Homo sapiens, UniProt P35232) | thermal proteome profiling | HepG2 cell lysate | 57 over 37 °C | baseline: compound over control | thermal stability ratio | 0.679 |
| Nc1ncnc2c1ncn2[C@@H]1O[C@H](COP(=O)(O)OP(=O)(O)OP(=O)(O)O)[C@@H](O)[C@H]1O | Arsenical pump-driving ATPase (arsA, Escherichia coli, UniProt P08690) |  |  |  |  | Km | 40 ± 3 µM |

| SMILES | target | assay | system | setting | scale | measurement | value |
| --- | --- | --- | --- | --- | --- | --- | --- |
| CC(=C/C(=O)O)/C=C/C=C(\C)C1C=C2C(C)(C)CCCC2(C)O1 (stereo not shown) | Rhodopsin (RHO, Homo sapiens, UniProt P08100, P23H) | immunostaining, measured: opsin | COS-7 transfected | 10.00 µM, unit not given | baseline: surface over total stained cells | plasma membrane localization | 0.6 |
| COc1ccc(-c2cc3ccc(O)cc3oc2=O)cc1 | Macrophage migration inhibitory factor (MIF, Homo sapiens, UniProt P14174) | inhibitor, ELISA |  | up to 50 µM |  | binding inhibition | no inhibition |
| CCN1CCC[C@H]1CNC(=O)c1c(O)c(Cl)cc(Cl)c1OC | G-protein coupled receptor 84 (GPR84, Homo sapiens, UniProt Q9NQS5) | β-arrestin recruitment, TANGO luminescence |  | concentration not given | baseline: basal luminescence | log2 fold change | 0.329 |
| NC(=O)C1=CN([C@@H]2O[C@H](COP(=O)(O)OP(=O)(O)OC[C@H]3O[C@@H](n4cnc5c(N)ncnc54)[C@H](O)[C@@H]3O)[C@@H](O)[C@H]2O)C=CC1 | FSP1 | oxidase activity, substrate, substrate consumption |  | with: atmospheric O2 |  | Km | 34 ± 9.53 µM |
| c1coc(-c2n[nH]cc2-c2ccnc3ccccc23)c1 | Protein kinase C-like 1 | kinase binding, MIB/MS competition | Candida albicans lysate | 1 µM | baseline: DMSO, negative = stronger binding | log2 fold change | -0.27 |
| C[C@]12C[C@H](O)[C@H]3[C@@H](CCC4=CC(=O)CC[C@@]43C)[C@@H]1CC[C@@H]2C(=O)CO | Cytochrome P450 11B2, mitochondrial (CYP11B2, Homo sapiens, UniProt P19099) | substrate |  | 100 µM, 37 °C, phospholipid vesicles |  | NADPH consumption rate, 18-hydroxylation | 35.5 ± 5.3 min⁻¹ |
| O=C(O)C1CCCNC1 (stereo not shown) | Sodium- and chloride-dependent taurine transporter (SLC6A6, Homo sapiens, UniProt P31641, Y138A) | binding, microscale thermophoresis |  | 244 nM, room temperature, with: 50 nM labelled protein | higher = more binding | normalised MST signal | 0.112 |
| [Cl-].[K+] | GUK1 | enzyme activity, NADH-coupled |  | 150 mM |  | reaction velocity | -0.024 µM/s and -0.0215 µM/s and -0.0362 µM/s |
| C=C1CN(S(=O)(=O)c2ccc(C)cc2)CCCN(Cc2ccccc2)CCCN(S(=O)(=O)c2ccc(C)cc2)C1 | Sortilin (Homo sapiens, UniProt Q99523) | protein down-modulation, flow cytometry | HEK-293T transfected with GFP fusion |  |  | maximum down-modulation | > 50% |
| [H]/N=C(/N)NCC(=O)O | Sodium- and chloride-dependent taurine transporter (SLC6A6, Homo sapiens, UniProt P31641, L306A) | binding, microscale thermophoresis |  | 122 nM, room temperature, with: 50 nM labelled protein | higher = more binding | normalised MST signal | 0.0535 |
| Nc1ncnc2c1ncn2[C@@H]1O[C@H](COP(=O)(O)CP(=O)(O)OP(=O)(O)O)[C@@H](O)[C@H]1O | P2X purinoceptor 1 (P2RX1, Homo sapiens, UniProt P51575) | calcium influx |  | 10 µM | baseline: ionomycin response | calcium influx | 77% and 81.8% and 89.9% |
| Nc1nc2c(ncn2[C@@H]2O[C@H](COP(=O)(O)O)[C@@H](O)[C@H]2O)c(=O)[nH]1 | GUK1 | substrate, NADH-coupled |  | KCl 10 mM, enzyme 2 nM |  | Vmax | 0.125 µM/s |
| O=C1c2ccccc2CCCN1CCCCN1CCN(c2ccccn2)CC1 | 5-hydroxytryptamine receptor 2A (HTR2A, Homo sapiens, UniProt P28223) | radioligand binding |  | concentration not given, with: [3H]ketanserin |  | inhibition | 89.2% |
| NC(=O)C1=CN([C@@H]2O[C@H](COP(=O)(O)OP(=O)(O)OC[C@H]3O[C@@H](n4cnc5c(N)ncnc54)[C@H](O)[C@@H]3O)[C@@H](O)[C@H]2O)C=CC1 | xylose reductase, Scheffersomyces stipitis, adaptor-fused, on DNA origami | substrate, absorbance |  | with: D-xylose |  | Km | 240 ± 20 µM |
| CC1CCCN(C(=O)c2cc3ncccn3n2)C1 (stereo not shown) | Histone acetyltransferase type B catalytic subunit | binding, affinity selection mass spectrometry |  |  | baseline: other proteins in batch | fold enrichment | 1.1 |
| Nc1ncnc2c1ncn2[C@@H]1O[C@H](COP(=O)(O)OP(=O)(O)OP(=O)(O)O)[C@@H](O)[C@H]1O | P2X purinoceptor 7 (P2rx7, Rattus norvegicus, UniProt Q64663, I214A/Q143A) | ion current, agonist, two-electrode voltage clamp | Xenopus laevis oocytes | 33 µM | baseline: highest concentration response | normalized current | 0 and 0.01 and 0.03 |
| COc1cccc(OC[C@@H]2CN(CC(=O)N3CCc4ccccc43)CCO2)c1 | 5-hydroxytryptamine receptor 7 (HTR7, Homo sapiens, UniProt P34969) | radioligand binding |  | concentration not given, with: [3H]LSD |  | inhibition | 13.5% |
| CC(C)=CCC/C(C)=C/C=C/C(C)=C/C=C/C(C)=C/C=C/C=C(C)/C=C/C=C(C)/C=C/C=C(\C)CCC=C(C)C | Beta-lactoglobulin (LGB, Bos taurus, UniProt P02754) | intrinsic fluorescence |  | 298 K | baseline: protein alone | fluorescence decrease | 19% |
| Nc1ccc2cc3ccc(N)cc3nc2c1 | Chymotrypsinogen A, activated (alpha-chymotrypsin) (Bos taurus, UniProt P00766) | isothermal titration calorimetry |  | concentration not given, pH 7.4, 25 °C |  | entropic contribution to binding | -6.72 ± 1.12 kcal/mol |
| CCC1(O)CCCN(C(=O)c2ccc(-c3ccc(F)c(NC(=O)CCl)c3)cc2)C1 (stereo not shown) | DNA dC->dU-editing enzyme APOBEC-3B, C-terminal domain (Homo sapiens, UniProt Q9UH17) | covalent modifier, intact protein mass spectrometry, measured: adduct +26104 Da |  | 25 µM, 3 h, 1-fold molar excess |  | protein adduct | 0% |

Some of these lines once more:
| SMILES | target | assay | system | setting | scale | measurement | value |
| --- | --- | --- | --- | --- | --- | --- | --- |
| Cc1ccccc1C1CC(=O)c2c(C)nc(N)nc2C1 (stereo not shown) | RFWD3 | binding, affinity selection mass spectrometry |  |  | baseline: other proteins in batch | log fold enrichment | -0.0483 |
| O=C(COP(=O)(O)O)[C@@H](O)[C@H](O)[C@H](O)COP(=O)(O)O | Prohibitin 1 (PHB1, Homo sapiens, UniProt P35232) | thermal proteome profiling | HepG2 cell lysate | 57 over 37 °C | baseline: compound over control | thermal stability ratio | 0.679 |
| Nc1ncnc2c1ncn2[C@@H]1O[C@H](COP(=O)(O)OP(=O)(O)OP(=O)(O)O)[C@@H](O)[C@H]1O | Arsenical pump-driving ATPase (arsA, Escherichia coli, UniProt P08690) |  |  |  |  | Km | 40 ± 3 µM |
| CC(=C/C(=O)O)/C=C/C=C(\C)C1C=C2C(C)(C)CCCC2(C)O1 (stereo not shown) | Rhodopsin (RHO, Homo sapiens, UniProt P08100, P23H) | immunostaining, measured: opsin | COS-7 transfected | 10.00 µM, unit not given | baseline: surface over total stained cells | plasma membrane localization | 0.6 |
